Assay results gathered from unrelated publications.
Each numbered part is a random draw from the data of one study; scales do not carry over between parts. Changes are numbered by the printed parent chain.

Block 1
Target: RING finger protein unkempt homolog, zinc fingers 1-6, GST-SBP tag (UNK, Homo sapiens, UniProt Q9C0B0, residues 30-357)
Chain of UniProt Q9C0B0 (30-357, looked up): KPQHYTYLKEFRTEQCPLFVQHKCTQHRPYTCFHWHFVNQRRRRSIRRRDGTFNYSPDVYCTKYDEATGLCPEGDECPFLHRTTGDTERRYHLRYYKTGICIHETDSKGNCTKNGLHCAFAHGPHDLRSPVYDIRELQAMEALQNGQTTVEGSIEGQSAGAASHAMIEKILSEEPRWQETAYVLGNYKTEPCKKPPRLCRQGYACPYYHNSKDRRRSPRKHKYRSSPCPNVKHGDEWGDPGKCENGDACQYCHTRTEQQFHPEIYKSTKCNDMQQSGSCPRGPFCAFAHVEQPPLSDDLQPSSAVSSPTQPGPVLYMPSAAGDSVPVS
Method: RNA Bind-n-Seq
Molecule type: RNA
Matrix: in vitro
Tested at: not given
Notes: RNA with constant flanks, human and mouse sites, ends assumed
Reference: input RNA pool
Reading: higher = stronger binding
Shared flanks, not repeated: GGGAGUUCUACAGUCCGACGAUC … CAACAGAGGAUUGAGCAUCA
Oligonucleotide | bound/input enrichment
UACUAGAUAUUAAAAACUACAUAUAGUUAAUAUAAUUUUAUAAUUUUUGUAAUUAAAUGUGCUCCUGUAAUUGUGAUAUUUUGUUUUCUAAGUAAUUAAGCCUUAAUUUUUCCCCUAUGU | 74.3 ratio
GUCAGUACACCAAGUUCUGGUCUGCUCAUGCUUCAUUGUCCAGAAAGCAGCAGGAAAUUGUAGUUCCGUUGUCAUCAAGCAGGAAGCAAAUGCAACACCGACCAAGGCAGUUUAGGUCAA | 0.482 ratio
GGAUAUUUCACAAAACCUCCGAUUGCAGCUCAUGCUUCAAGAUCUGCAGAAUCUAAGACUAUAGAAUUUGGGAAAACUAAUUUUGUUCAGCCCAUGCCGGGUGAAGGAUUAAGGCCAUCU | 0.322 ratio
UAACUUAUUUUUCGUUAAAGUUUGACUGAAACACGCUUCUACCAAAUACAGUAUAAAUAAUUAGGUAGUCUUAAUGCCUUUCCUAUUUUUUUUUCCUUUUCACACAAAAUGUACACAAAG | 10.5 ratio
GAUAUGGGCUAUAAUACUUUAGCCAACUUCCGAAUAGAAAAGAAAAUUGGUCGUGGACAAUUUAGUGAAGUUUAUAGAGCAUCCUGUCUCUUGGAUGGAGUGCCGGUAGCGUUAAAAAAA | 44.5 ratio
CCCAACCACUCUGUGGUGAAGCUGCAUGAUGCAGGUCAUGCCUGCUACCUCCACAAGCCAGAAGCCUUCCACCUCGCCCUUCUUGCCUUCCUUGACCAUUUGCCUUGAGUGGACUCACCU | 0.321 ratio
GUUAAAGAUUCUUCUCAAGAAGAAGAUGAUAUCAGUUGCGCUGAAAUAGCAGAUGAAGUUUACAUGGAAGUCAUUGUAGGGGAAGAGGAAGGAACUUCUCUCCCUGAGAUUCAGCUUGAG | 0.275 ratio
UUGUUUACUGUAAGUUUGAAAAUAAAAAUGAAGAAAAAAAUUCCAAUGACUGUGCUGUGGUUGGAGACUUUAUUUACCAAGAUGUUUACUCUUCCUUUCCCCUUCCAUUUUGAGGAGCUG | 0.171 ratio

Block 2
Target: Prothrombin, mature alpha-thrombin (F2, Homo sapiens, UniProt P00734)
Method: aptamer microarray, sandwich
Molecule type: DNA with 2'F-ANA
Matrix: in vitro
Tested at: 200 nM
Notes: whole 15-mer aptamer, many near background
With: Cy3 exosite-II aptamer, 400 nM
Reading: higher = stronger binding
Oligonucleotide: GGTTGGTGTGGTTGG
Modification | mean fluorescence intensity
2'F-ANA at 1 3 4 7 9 10 11 12 13 14 | 53.9 a.u.
2'F-ANA at 3 4 6 7 11 13 | 455 a.u.
2'F-ANA at 3 6 8 11 12 14 | 644 a.u.
2'F-ANA at 3 4 5 6 9 11 13 14 | 52.2 a.u.
2'F-ANA at 1 7 8 9 15 | 219 a.u.
2'F-ANA at 3 5 6 7 9 10 15 | 68.9 a.u.
2'F-ANA at 1 2 4 5 6 8 9 10 12 13 14 15 | 50.5 a.u.
2'F-ANA at 1 2 4 6 11 12 | 218 a.u.
2'F-ANA at 4 5 6 7 10 12 14 15 | 47.5 a.u.
2'F-ANA at 8 10 12 | 191 a.u.

Block 3
Target: CCNE2, cyclin fold, Cln2 fusion (human)
Method: yeast growth competition, sequencing
Matrix: yeast
Notes: strong parent motif
Reference: not given
Reading: higher = stronger binding
Starting sequence: CDKN1B docking peptide (human); PSACRNLFGPVDH; partner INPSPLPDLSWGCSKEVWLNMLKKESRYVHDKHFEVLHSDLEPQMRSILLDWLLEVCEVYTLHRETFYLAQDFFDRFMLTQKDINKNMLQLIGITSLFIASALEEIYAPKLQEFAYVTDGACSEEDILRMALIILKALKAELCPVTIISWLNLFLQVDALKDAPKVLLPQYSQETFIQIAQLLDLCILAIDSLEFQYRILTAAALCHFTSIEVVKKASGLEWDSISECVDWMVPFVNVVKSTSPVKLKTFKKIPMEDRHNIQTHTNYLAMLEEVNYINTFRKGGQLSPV
Change | normalised enrichment score
N6Y | 0.317
R5D | -0.262
V11A | 0.993
R5W | -0.202
G9P | 0.8
C4S | 0.282
C4Q | 0.149
H13P | 1.51
D12K | 1.1
L7M | 0.628
C4L | 1.32

Block 4
Molecule: PhoQ, residues 284 288 289 292 302 303 SIHLQL
Method: Sort-seq
Refers to: YFP reporter
Matrix: E. coli
Notes: PhoQ-PhoP variant library
With: 10 µM Mg2+
Reference: high Mg2+ state
Reading: higher = stronger signaling
target | fold induction
PhoP, residues 12 14 15 18 19 QQAYL (Escherichia coli, UniProt P23836) | 19.4
PhoP, residues 12 14 15 18 19 LFHKL (Escherichia coli, UniProt P23836) | 0.831
PhoP, residues 12 14 15 18 19 GMGLL (Escherichia coli, UniProt P23836) | 1.63

A few entries again (block 1):
Oligonucleotide | bound/input enrichment
GAUAUGGGCUAUAAUACUUUAGCCAACUUCCGAAUAGAAAAGAAAAUUGGUCGUGGACAAUUUAGUGAAGUUUAUAGAGCAUCCUGUCUCUUGGAUGGAGUGCCGGUAGCGUUAAAAAAA | 44.5 ratio
CCCAACCACUCUGUGGUGAAGCUGCAUGAUGCAGGUCAUGCCUGCUACCUCCACAAGCCAGAAGCCUUCCACCUCGCCCUUCUUGCCUUCCUUGACCAUUUGCCUUGAGUGGACUCACCU | 0.321 ratio
GUUAAAGAUUCUUCUCAAGAAGAAGAUGAUAUCAGUUGCGCUGAAAUAGCAGAUGAAGUUUACAUGGAAGUCAUUGUAGGGGAAGAGGAAGGAACUUCUCUCCCUGAGAUUCAGCUUGAG | 0.275 ratio
